Results pooled from the literature.
A part holds a random share of what one study measured.

Block 1 — method: protein binding microarray; molecule type: double-stranded DNA, one strand shown; matrix: in vitro; concentration: not given; baseline: not given; reading: higher = stronger binding
Target: Histone acetyltransferase KAT6A, winged helix 2, GST fusion (KAT6A, Homo sapiens, UniProt Q92794, residues 85-181)
Notes: 8-mer, flanks averaged, mean of 2 arrays, mostly near background
Target sequence (chain): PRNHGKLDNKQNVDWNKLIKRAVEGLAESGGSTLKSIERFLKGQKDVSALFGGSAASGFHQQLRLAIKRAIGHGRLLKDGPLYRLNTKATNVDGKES
Oligonucleotide	E-score
AGTCAGTG	0.00692
GAACCATC	-0.0559
AAACCGCT	-0.0863
GCCAGGAC	0.142
CATGGCTC	0.0281
CTCCCTTC	0.0164
TAACTAAA	-0.182
CCGGCAGG	0.2
ACCCGACC	0.0759
AATAACGC	-0.0703
ATTCACCG	-0.0821
CAGCTAAA	-0.00993
ATCAAAGA	0.121
ACAAAGCT	0.0119
CCATCGTC	0.0307
GGCCGGAA	0.177
CCGATTCA	-0.0173

Block 2 — method: RNA Bind-n-Seq; molecule type: RNA; matrix: in vitro; concentration: 365 nM; baseline: no-protein control; reading: higher = stronger binding
Target: RNA binding protein fox-1 homolog 2, RRM domain, GST-SBP tag (RBFOX2, Homo sapiens, UniProt O43251-10, residues 100-194)
Notes: natural RNA segment, single round, ends assumed
Shared flanks, not repeated: GGGAGUUCUACAGUCCGACGAUC … UGGAAUUCUCGGGUGCCAA
Construct (chain): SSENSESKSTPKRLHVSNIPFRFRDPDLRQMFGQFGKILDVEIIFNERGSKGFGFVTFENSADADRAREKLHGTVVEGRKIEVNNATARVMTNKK
Oligonucleotide	RBNS enrichment (R)
AUAGCGUUUCCAACAAAUUGAGAAAUUACUUAUUUGGUGUAAAAUGACGAGAGAGCUUUAGAAUUUAAUAAAAUGUCAAAAAUACAAUUUGAUACCCUUAAAAAUUAUUC	0.525
UUGAAGCUCCUGAAAUUUUGAGCACUGCUCUAACAUUGUAGGAAGUUAGUGACAUUUUGCAAGUCUCUACAAAAGCUCUUGCCACAGAAUUCACUGCUGCCCUGACUCUU	0.294
ACAGUGUAAAUGUUUAUAUGGACACAGAACAGCAUCACUAAAUAAAGCCUUUCUACUUGUGGGUGCAAUAGAUUCCUUCUUUUUCCUUUGCAGUGUCAUCUUGAUUGUAU	0.768
CAGUAUACAGAUAACCACAAAGUUGUUAUUUUUAACCAAAAUAUACAUUUCAUAAUGUUGGCACUGGAGUAUUAUAAGAGAUCAUGAAUGUUUCCUUAAUUAUCAUGGCA	2.39
CCUUUGACAUAUCAGCCAAUACCAAUCAAGCUGACGACUCCAGACACUCCGUGUGACUGUAACAUUUCUUCAAGGAAAGUAUAGCGUCUAUGGAGUGCAGAGGGCAUGUG	0.298
AAGACUUUUAUUUAAAACAGCUUUCAUAUUAAACUGCUGCUGUAUUAAACAGACCUUAGUUUCCAUAUAGAAACUUUAUAACUGAAACACCCUUAAGUAUUUAUAUUCUU	0.715
AAACUUUACCACAUUUAUAAAUAUGAGGGAUUUUUUCUUUUGUUGGUUUUUAACCCUUUUAGACUAAGCCUCAAAAAUAUUAUCAUACCUGUGUACUUGUACAUUAAAAA	0.606
AGCAAUCAAAUGAUUUAGUCUUGUAAUAAAAUUGCAUUUUAAUUAUCUUAGGUGCUUUUUUUUUCUUGGUAGCCUCAUCCAGGUCCUUGAAGGUCCUCAGAACAUCCUCC	0.619

Block 3 — method: RNA Bind-n-Seq; molecule type: RNA; matrix: in vitro; concentration: not given; baseline: input RNA pool; reading: higher = stronger binding
Target: RING finger protein unkempt homolog, zinc fingers 1-6, GST-SBP tag (UNK, Homo sapiens, UniProt Q9C0B0, residues 30-357)
Chain of UniProt Q9C0B0 (30-357, looked up): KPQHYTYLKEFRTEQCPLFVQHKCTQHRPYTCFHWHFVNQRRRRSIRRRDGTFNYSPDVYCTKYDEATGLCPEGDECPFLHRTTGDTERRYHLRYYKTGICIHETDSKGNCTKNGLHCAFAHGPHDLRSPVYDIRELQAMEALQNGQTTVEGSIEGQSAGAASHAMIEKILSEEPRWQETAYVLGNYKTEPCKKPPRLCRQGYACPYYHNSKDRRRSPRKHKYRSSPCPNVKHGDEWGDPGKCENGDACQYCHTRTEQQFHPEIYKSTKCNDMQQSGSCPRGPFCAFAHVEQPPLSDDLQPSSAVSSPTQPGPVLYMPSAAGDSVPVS
Notes: RNA with constant flanks, human-mouse chimeric sites, ends assumed
Shared flanks, not repeated: GGGAGUUCUACAGUCCGACGAUC … CAACAGAGGAUUGAGCAUCA
Oligonucleotide	bound/input enrichment [ratio]
CCACCAGGAUCCCAGAAACAUGACCCUUGCAGCCUAUAAAGAGAAGAUGAAGGAGCUCCCGCUGGUGUCCUUGUUCUGCUCCUGCUUCCUGGCCGAUCCCCUGAAUAAGUCGUCCUACAA	0.211
GAUGAUAAUCACACAAACAAGUCACUGUUACAUGACCAGCCUUGGGAUUCUUCUCCUGAUUAAUAUUCUCCCUGGAACCACUGGUCAAGGGGAAUCAAGACGACAAGAACCCGGGGACUU	0.126
GGACCAUAAUCAUGGAGGACAUAAUGCAGCUCCCCAAAGCGCGCGUCAACGCCAGCAUGCUAGCUCAGUAUAUCGACCGGCCCGUGUGCUUCGUGGGGAAGCUGGAAAAGAUUCAUCCCA	0.101
CGCGUCCUCUCGCUGCUGCGGAGCCCGAGCUGGGAACCAUUCCGGGACUGGUACCCUGCACACAGCCGCCUCUUCGAUCAAGCUUUCGGGCUGCCCCGGUUGCCCGAUGAGUGGUCGCAG	0.137
GUAGCUGGCCAUUAGGAAAUGCUGGUAAUUUCAGUCACUUGCUGAUGACUUCUGAUGUCCCAGCAAAUGUUGGCAUUGUUGACUGCUGAGAAGAUACUUCUGAGGACCCACGUCUAAGGU	0.198
CUGAAAAACACAGAUAUCAAAGUUGUUGACUUUGGAAGUGCAACGUAUGAUGAUGAACAUCAUAGUACUUUGGUGUCCACAAGGCACUACAGAGCUCCCGAGGUCAUUUUGGCUUUAGGU	0.216
GAGCCCAGCCGGCAGUUUGUAAAGGACUCCAUUCGGCUGGUUAAAAGAUGCACCAAACCCGACAGAAAAGAAUUCCAGAAGAUUGCCAUGGCUACAGCUAUAGGAUUUGCUAUCAUGGGA	0.264
UAAAUUAGGGCUGCCGUUUUCUGUUUCUCCCUGGGCUGCGGAAAGCCAGAAGAUUUUAUCUAGCUUAAACCAGGCUGCUGGUGUUCCCUCCCUCCCGCCACGAGGGUGUUUUUGGCUGCA	0.683

Block 4 — method: RNA Bind-n-Seq; molecule type: RNA; matrix: in vitro; concentration: 200 nM; notes: whole 134-nt RNA, ends assumed; together with: 150 mM LiCl; baseline: input library; reading: higher = stronger binding; all molecules: 7-deaza-guanosine replaces G
Target: Fragile X messenger ribonucleoprotein 1, C-terminal low-complexity region (Fmr1, Mus musculus, UniProt P35922)
Shared flanks, not repeated: GGGAGUUCUACAGUCCGACGAUC … UGGAAUUCUCGGGUGUCAAGG
Oligonucleotide	log2 enrichment
UGGUUUGAGUCCAGCCAAUGACACUGGAGCCAAAAAGAAGAAAAAGAAACAAAAAAAGAAGAAAGAAAAAGGCAGUGAGACAGAUUCAGC	1.24
CACAGACAACACGCACCCACAAAAACACAGAGGGAAGGGGUUGGGAUGGGGACAGGGUGCACAGCAGGGCGGGGUAGGACCCCAGCCCCU	0.197
ACCAUGCAGGUGGGCAUCUUUGGGAAGUGGGGCAAGGGGGGGAUAGAGAGGGGGGUAACACUUUGGGAACAGGUGGUCCCAGGUCGUUUC	0.859
UAACUUUAGAGGAGGAUCUGAUGGAUAUGGCAGUGGACGUGGAUUUGGGGAUGGCUAUAAUGGGUAUGGAGGAGGACCUGGAGGUGUCAA	-0.0804
AGUCCUGUGCUACACAUCGUAUGUACCGAAUCGGGAAAGGGAAAGGGAAAAAAAGGGAAAGUAUUAUGUUACGCCGUUCGGAUCUGCACU	-0.48
UGGGAGGUGGAUUUUGUUUAUUUUUUUAGCUCAUUUCCAGGGGUGGGAAAUUUUUUUUAAUAUGUGUCAUGAAUAAAGUUGUUUUUGAAA	0.347
GUCCUGUGCUACACAUCGUAUGUACCGAAUCGGGAAAAAAAGGGAGGGUUUUUUUGGGAAAGUAUUAUGUUACGCCGUUCGGAUCUGCAC	-1.49
CAAGUCCUGUGCUACACAUCGUAUGUACCGAAUCGGGAGGGAAAAAAAGGGUGGGAAAGUAUUAUGUUACGCCGUUCGGAUCUGCACUUC	-0.871

Block 5 — method: RNAcompete; molecule type: RNA; matrix: in vitro; concentration: 20 nM; notes: 7-mer, probes averaged, single round; baseline: mean of 7-mers; reading: higher = stronger binding
Target: PABPC1L2, full length, GST fusion (mouse, UniProt A0ABA7IW68)
Target sequence (chain): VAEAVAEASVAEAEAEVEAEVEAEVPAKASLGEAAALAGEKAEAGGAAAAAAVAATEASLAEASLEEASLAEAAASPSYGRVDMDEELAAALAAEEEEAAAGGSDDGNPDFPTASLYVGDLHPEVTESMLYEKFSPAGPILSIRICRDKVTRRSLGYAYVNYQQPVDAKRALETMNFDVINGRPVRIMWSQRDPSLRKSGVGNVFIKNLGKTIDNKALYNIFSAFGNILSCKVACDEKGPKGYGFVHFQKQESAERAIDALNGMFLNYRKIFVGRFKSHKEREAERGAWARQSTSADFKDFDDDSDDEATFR
Oligonucleotide	7-mer Z-score
UCCGACG	-0.286
GAGUGUA	0.111
AUUAUAC	-0.161
GUCACGU	-0.22
UCGUAAG	-0.32
CCACAAA	0.883
AAUUGCA	0.26
GAGUUCA	-0.204
UAUCAUG	-0.00833
UCGGUGA	-0.195
AUUGCCA	-0.144
GUGGGUU	-0.101
UGACCGA	-0.00289
CUUAAUC	-0.333
AGCCGAA	-0.0355
AAGGCAG	0.401
UUUAAGA	0.151
CUACAGC	-0.382

Repeated from above (block 5):
Oligonucleotide	7-mer Z-score
GUGGGUU	-0.101
UGACCGA	-0.00289
UUUAAGA	0.151
CCACAAA	0.883
AGCCGAA	-0.0355
UCGGUGA	-0.195
CUUAAUC	-0.333
AAUUGCA	0.26
GUCACGU	-0.22
